Measured values pooled from the literature.

`C#CCN(CCCNC(=O)CCCCC[N+]1=C(/C=C/C2=C(Cl)C(=C/C=C3\N(CCCCCC(=O)[O-])c4ccccc4C3(C)C)/CCC2)C(C)(C)c2ccccc21)CCCOc1ccc(Cl)cc1Cl` has a stability time of no less than 4 h (mouse plasma; 4 °C).
`Oc1ccc2ccccc2c1/N=N/c1ccc(/N=N/c2ccccc2)cc1` gave a stability deviation of 2% (rat whole blood extract; 0.5 µg/L, 30 days, -20 °C, long-term storage).
For `CSCC[C@H](NC(C)=O)C(=O)[O-].CSCC[C@H](NC(C)=O)C(=O)[O-].[Ru+2].c1cc(Nc2nccc3ccccc23)nc(-c2cccc(Nc3nccc4ccccc34)n2)c1`, the stability time was 16 h (1H NMR; DMSO-d6; dark).
For `[2H]C([2H])([2H])n1c(C(C)(C)NC(=O)c2nnc(C)o2)nc(C(=O)NCc2ccc(F)cc2)c(O)c1=O`, “stability in stock solution” read no more than 8 h (methanol; 1000 µg/mL, 25 °C; stable up to).
With `CO[C@@H](C[C@H]1C(C)=CC[C@@H]2[C@]3(C)C[C@H](O[C@@H]4O[C@@H](C)[C@H](O)[C@@H](O)[C@H]4O)[C@@H](O)C(C)(C)[C@H]3CC[C@]21C)[C@H](N)C(=O)O` the stability time was greater than 4 h (simulated intestinal fluid with pancreatin; 1 µM, pH 6.8, 37 °C).
The stability deviation of `Cc1ccc(/N=N/c2c(O)ccc3ccccc23)c(C)c1` is reported as -0.3% (rat whole blood; 5.0 µg/L, 30 days, -20 °C, long-term storage).
`CC[C@H](C)[C@H](NC(=O)[C@H](N)Cc1ccc(O)cc1)C(=O)N[C@H]1CSSC[C@@H](C(=O)N(C)[C@H](C(N)=O)[C@@H](C)CC)NC(=O)[C@H](CCCNC(=N)N)NC(=O)[C@H](Cc2c[nH]cn2)NC(=O)[C@H](C)NC(=O)CN(C)C(=O)[C@H](Cc2c[nH]c3ccccc23)NC(=O)[C@H](CC(=O)O)NC(=O)[C@H](CCC(N)=O)NC(=O)[C@H](Cc2cn(C)c3ccccc23)NC(=O)[C@H](C(C)C)NC1=O` has a stability time of no less than 48 h (human plasma, SPE extract; room temperature and 4 °C).
The stability time of `O=c1c(O)c(-c2ccc(O)c(O)c2)oc2cc(O[C@@H]3O[C@H](CO)[C@@H](O)[C@H](O)[C@H]3O)cc(O)c12` is reported as no less than 24 h (processed plasma samples; 15 °C, autosampler).
`COC(=O)/C=C/C(=O)c1ccc(OC)cc1`: stability “stable” (rat plasma; three freeze-thaw cycles).
`CC/C=C\C/C=C\C/C=C\C/C=C\C/C=C\C/C=C\CCC(=O)Nc1ccn(C2OC(CO)C(O)C2(F)F)c(=O)n1` (stereo not shown) gave a stability time of no less than 48 h (isopropyl myristate).
`C#CCOCCOCCOCCOCCn1cc(C(ONC(=O)/C=C/C(C)=C/C2(C)Oc3cc(N(C)C)ccc3C2=O)(c2ccc(C)cc2)c2ccc(C)cc2)nn1` (stereo not shown) has a stability duration of greater than 3 days (buffer; pH at least 7).
With `Cn1cc[n+](C)[c]1[Ir-3]123([c]4n(C)cc[n+]4C)[n]4c5ccc4C(c4c(F)c(F)c(F)c(F)c4F)=C4C=CC(=[N+]41)C(c1c(F)c(F)c(F)c(F)c1F)=c1ccc([n]12)=C(c1c(F)c(F)c(F)c(F)c1F)C1=[N+]3C(=C5c2c(F)c(F)c(F)c(F)c2F)C=C1.O=S(=O)([O-])C(F)(F)F` the stability time was 72 h (CDCl3).
The stability deviation of `Cc1ccccc1/N=N/c1ccc(/N=N/c2c(O)ccc3ccccc23)c(C)c1` is reported as 1% (rat whole blood; 16.0 µg/L, 30 days, -20 °C, long-term storage).
For `C=C1C[C@@]23CC[C@H]4[C@@](C)(CCC[C@@]4(C)C(=O)O[C@@H]4O[C@H](CO)[C@@H](O)[C@H](O)[C@H]4O)[C@@H]2CC[C@]1(O[C@@H]1O[C@H](CO[C@H]2O[C@H](CO)[C@@H](O)[C@H](O)[C@H]2O)[C@@H](O)[C@H](O)[C@H]1O[C@@H]1O[C@H](CO)[C@@H](O)[C@H](O)[C@H]1O)C3`, the stability ratio was roughly 2.5 fold (Britton-Robinson buffer; 0.05 w/v, pH 1.4; reference: cpd over rebaudioside A).
With `Oc1ccc2ccccc2c1/N=N/c1ccccc1` the stability deviation was 0.8% (rat whole blood extract; 0.5 µg/L, 30 days, -20 °C, long-term storage).
For `CCCC[P+](CCCC)(CCCC)CCCC.Cc1ccc(S(=O)(=O)[N-]C(=O)NN2CC3CCCC3C2)cc1` (stereo not shown), the stability time was 6 h (HPLC; simulated gastric fluid; pH 1, 37 °C).

For quick reference, copied from above:
`C#CCN(CCCNC(=O)CCCCC[N+]1=C(/C=C/C2=C(Cl)C(=C/C=C3\N(CCCCCC(=O)[O-])c4ccccc4C3(C)C)/CCC2)C(C)(C)c2ccccc21)CCCOc1ccc(Cl)cc1Cl` has a stability time of no less than 4 h (mouse plasma; 4 °C).
`C#CCOCCOCCOCCOCCn1cc(C(ONC(=O)/C=C/C(C)=C/C2(C)Oc3cc(N(C)C)ccc3C2=O)(c2ccc(C)cc2)c2ccc(C)cc2)nn1` (stereo not shown) has a stability duration of greater than 3 days (buffer; pH at least 7).
The stability deviation of `Cc1ccc(/N=N/c2c(O)ccc3ccccc23)c(C)c1` is reported as -0.3% (rat whole blood; 5.0 µg/L, 30 days, -20 °C, long-term storage).
